Measurements gathered from unrelated publications.
Each line is one published result; not all experiments were run side by side. Values joined by “and” are separate records of one study, mostly repeats; a detail may differ. ± gives the spread as reported.
folP: Dihydropteroate synthase (folP, Bacteria, UniProt P0AC13)
T1: RNA aptamer; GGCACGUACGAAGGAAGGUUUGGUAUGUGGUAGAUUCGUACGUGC

`N[C@H]1CC[C@H](Nc2nccc(-c3cccnc3Oc3ccc(NC(=O)NC4CC4)c4ccccc34)n2)CC1`: “log2 LFQ intensity” 17.5 and 19.2 and 18.2 and 20.1 (HINT1 (Homo sapiens, UniProt P49773); kinobead competition pulldown; HEK293/HCT116 lysate mixture; 10 µM, 1 h, 4 °C; lower = stronger competition).
The binding stoichiometry of `CC1CCCN(CCCNC(=O)C2=Cc3sc4c(c3CS2)CCCC4)C1` (stereo not shown) is reported as 1.11 (Catenin beta-1, residues 141-305 (CTNNB1, Homo sapiens, UniProt P35222); ITC; concentration not given, 25 °C).
With `CC(CC(=O)O)c1n[nH]c2nc(N)[nH]c(=O)c2c1=O` (stereo not shown) the melting temperature was 66.5 °C (folP; CETSA HiBiT; whole cells).
The binding stoichiometry of `CC(=O)N[C@@H]1[C@@H](O[C@@H]2O[C@H](C(=O)O)[C@@H](O[C@@H]3O[C@H](COS(=O)(=O)O)[C@@H](OS(=O)(=O)O)[C@H](O[C@@H]4O[C@H](C(=O)O)[C@@H](OS(=O)(=O)O)[C@H](OS(=O)(=O)O)[C@H]4OS(=O)(=O)O)[C@H]3NC(C)=O)[C@H](OS(=O)(=O)O)[C@H]2OS(=O)(=O)O)[C@H](OS(=O)(=O)O)[C@@H](COS(=O)(=O)O)O[C@H]1N=[N+]=[N-]` is reported as 0.217 and 0.212 (Interleukin-10 (Il10, Mus musculus, UniProt P18893); ITC; concentration not given, concentrations 10 and 20 µM).
`CN(CCCN1CCN(C(=O)CN2CCN(CC(=O)[O-])CCN(CC(=O)[O-])CCN(CC(=O)[O-])CC2)CC1)c1ccc2nccc(C(=O)NCC(=O)N3CC(F)(F)C[C@H]3C#N)c2c1.[Lu+3]` — result for “number of binding sites”: 1.23 (Albumin (ALB, Homo sapiens, UniProt P02768); fluorescence quenching; concentration not given).
`COC(=O)CC(C)c1nn(C)c2nc(N)[nH]c(=O)c2c1=O` (stereo not shown): “melting temperature shift” 10.5 °C (folP; CETSA HiBiT; Escherichia coli, cell lysate; concentration not given; baseline: DMSO).
For `C=C(NC(=O)c1csc(-c2cccnc2)n1)C(=O)NC(=C)C(=O)OC`, “adduct formation rate” read 0.0094 ± 0.0004 min⁻¹ (PRDX3 (Homo sapiens, UniProt P30048, A142E/C108S/S139E); MALDI-TOF, item: CR adduct; PRDX3 C108S; 200 µM, 37 °C).
`N#CN1CC[C@H](C(=O)Nc2nc3c(s2)CN(C(=O)Cn2cc(COCCOCCOCCOCCNC(=O)CCCC[C@@H]4SC[C@@H]5NC(=O)N[C@@H]54)nn2)CC3)C1` gave an iBAQ abundance of 665000 (UBA1 (Homo sapiens, UniProt P22314); probe binding, affinity probe, neutravidin pull-down LC-MS/MS; HEK293T, cell lysate; 5 µM, 1 h, mean of three replicates, unit not given; higher = more pulled down).
`COc1ccccc1-c1ccncc1C(=O)Nc1nnc(OCc2ccc(Cl)cc2)s1` has a remaining activity of 108% (RECQL5 (Homo sapiens, UniProt O94762); ATPase activity, ADP-Glo; 0.95 µM, 1 h).
The Emax of `COc1cc(C2C(NC(=O)c3ccc(NC(=O)OC(C)(C)C)cc3)(C(=O)O)C(c3ccc(OC(=O)c4cccs4)c(OC)c3)C2(NC(=O)c2ccc(NC(=O)OC(C)(C)C)cc2)C(=O)O)ccc1OC(=O)c1cccs1` (stereo not shown) is reported as 8.66 ± 4.22% (GLP1R (Homo sapiens, UniProt P43220, Y152A); cAMP accumulation, agonist; receptor mutant; baseline: wild type).
The koff of `CC(=O)N[C@@H](CCC(=O)O)C(=O)N[C@@H](CCC(=O)O)C(=O)N[C@@H](CCC(=O)O)C(=O)N[C@@H](Cc1c[nH]c2ccccc12)C(=O)N[C@@H](C)C(=O)N[C@@H](CCCNC(=N)N)C(=O)N[C@@H](CCC(=O)O)C(=O)N[C@@H](Cc1ccccc1)C(=O)NCC(=O)N[C@@H](C)C(=O)N[C@@H](CCC(N)=O)C(=O)N[C@@H](CC(C)C)C(=O)N[C@@H](CCCNC(=N)N)C(=O)N[C@@H](CCCNC(=N)N)C(=O)N[C@@H](C)C(=O)N[C@@H](C)C(=O)N[C@@H](CC(=O)O)C(=O)N[C@@H](CC(=O)O)C(=O)N[C@@H](CC(C)C)C(=O)N[C@@H](CC(N)=O)C(=O)N[C@@H](C)C(=O)N[C@@H](CCC(N)=O)C(=O)N[C@@H](Cc1ccc(O)cc1)C(=O)N[C@@H](CCC(=O)O)C(=O)N[C@@H](CCCNC(=N)N)C(=O)N[C@@H](CCCNC(=N)N)C(=O)N[C@@H](CCCNC(=N)N)C(N)=O` is reported as 0.0275 s⁻¹ (Induced myeloid leukemia cell differentiation protein Mcl-1 homolog, residues 152-308 (Mus musculus, UniProt P97287); binding, SPR; 0.2% DMSO).
Under “activity vs control”, `CC1(Cc2ccccc2)C(=O)N(c2cccc(CN3CCN(Cc4ccc(Br)cc4)CC3)c2)C1=O.O=C(O)C(F)(F)F` is recorded as 13% (DPP9 (Homo sapiens, UniProt Q86TI2); enzyme activity, inhibitor; 5 µM).
For `COc1ccc(-c2ccc3c(c2)C(=Cc2sc4ccccc4[n+]2C)C=CN3C)cc1`, the Kd was 9.47 nM (T1, RNA aptamer; fluorescence titration).
The Emax of `CC[C@H](C)[C@@H]1NC(=O)[C@H](Cc2ccccc2)NC(=O)[C@H](CCC(=O)O)NC(=O)[C@H](CCCNC(=N)N)NC(=O)CNC(=O)[C@@H](NC(=O)[C@H](CC(C)C)NC(=O)[C@H](CCCNC(=N)N)NC(=O)[C@@H](NC(=O)CNC(=O)[C@H](Cc2ccc(O)cc2)NC(=O)[C@@H]2CCCN2C(=O)[C@H](C)NC(=O)[C@H](C)NC(=O)[C@@H](N)CCCNC(=N)N)C(C)C)CSSC[C@@H]2NC(=O)[C@@H](NC(=O)[C@H](CO)NC(=O)[C@H](CO)NC(=O)[C@H](CO)NC(=O)[C@H](CC(C)C)NC(=O)CNC(=O)[C@H](C)NC(=O)[C@H](CC(C)C)NC(=O)[C@@H](NC(=O)[C@@H](N)CC(=O)O)C(C)C)CSSC[C@H](NC(=O)CNC(=O)[C@H](Cc3c[nH]c4ccccc34)NC(=O)[C@H](CCCCN)NC2=O)C(=O)N[C@@H](CO)C(=O)N[C@@H](CCCCN)C(=O)N[C@@H](CO)C(=O)N[C@@H](CCC(=O)O)C(=O)N[C@@H]([C@@H](C)CC)C(=O)N[C@@H](CO)C(=O)N[C@@H](CO)C(=O)N[C@@H](CC(C)C)C(=O)N[C@H](C(=O)O)CSSC[C@@H](C(=O)NCC(=O)NCC(=O)N[C@@H](CO)C(=O)N[C@@H](CCCNC(=N)N)C(=O)N[C@@H](Cc2c[nH]c3ccccc23)C(=O)O)NC(=O)[C@H]([C@@H](C)O)NC(=O)[C@H](Cc2ccccc2)NC(=O)[C@H]([C@@H](C)CC)NC(=O)[C@H](C(C)C)NC(=O)[C@H](C)NC(=O)[C@H](CCCNC(=N)N)NC1=O` is reported as 73.9 ± 7.73% (RXFP3 (Homo sapiens, UniProt Q9NSD7, S159A/S163A); HEK-293T; baseline: wild type).
For `CC(C)C[C@@H]1NC(=O)[C@@H]2CSSC[C@@H](C(=O)NCC(=O)O)NC(=O)[C@H](Cc3ccccc3)NC(=O)CNC(=O)[C@H](CC(N)=O)NC(=O)[C@@H]3CCCN3C(=O)CNC(=O)[C@@H]3CSSC[C@H](NC(=O)[C@H](CCCNC(=N)N)NC(=O)[C@H](CCC(N)=O)NC(=O)[C@H](CCCNC(=N)N)NC(=O)[C@H](CCCCN)NC(=O)[C@H](C(C)C)NC(=O)[C@H](C)NC(=O)[C@H](CC(N)=O)NC(=O)[C@H](CO)NC(=O)[C@H](C)NC(=O)[C@H](CCCNC(=N)N)NC(=O)[C@@H](NC(=O)CN)CSSC[C@H](NC(=O)CNC(=O)[C@H](C)NC1=O)C(=O)N[C@@H](C(C)C)C(=O)N3)C(=O)N[C@@H](CCCCN)C(=O)N[C@@H](CCC(N)=O)C(=O)N[C@@H](CC(=O)O)C(=O)N[C@@H](CO)C(=O)N[C@@H](CC(=O)O)C(=O)N2`, the kon was 2.26e+06 ± 300000 M⁻¹ s⁻¹ (Low-density lipoprotein receptor-related protein 6, E1 domain (LRP6, Homo sapiens, UniProt O75581); binding, SPR; pH 7.5).
`COc1ccc(C2(C(=O)N3CCC(Nc4nc5ccccc5c(=O)[nH]4)CC3)CC2)cc1` gave a Hill slope of 1.25 (MRGPRD (Homo sapiens, UniProt Q8TDS7, K102A); miniGq recruitment, agonist, BRET; HEK293T; K102A mutant).
The Kd of `COc1ccc(-c2ccc3c(c2)C(=Cc2sc4ccccc4[n+]2CC(=O)NCCOCCOCCOCCNC(=O)CCCC[C@@H]2SC[C@@H]4NC(=O)N[C@@H]42)C=CN3C)cc1` is reported as 64.2 nM (T1, RNA aptamer; fluorescence titration).
For `CC(=O)NCCCCCNc1nc(NCCCCCCN(C)C)c2cc(NC(=O)/C=C/CN(C)C)ccc2n1`, the remaining signal was 27.3% (SETDB1 (Homo sapiens, UniProt Q15047); cell-free assay, inhibitor, FP; 1 µM).
For `CCOC(=O)Cc1n[nH]c2nc(N)[nH]c(=O)c2c1=O`, the melting temperature was 64.9 °C (folP; CETSA HiBiT; whole cells).
`CC(=O)N[C@@H](CCC(N)=O)C(=O)N[C@@H](CC1CCCCC1)C(=O)N[C@@H](CNC(=O)CCl)C(=O)N[C@@H](CC(C)C)C(=O)N[C@@H](Cc1ccccc1)C(=O)O` has a kapp of 0.2 M⁻¹ s⁻¹ (Beta sliding clamp (Escherichia coli, UniProt P0A988); covalent adduct formation, mass spectrometry; 22 °C).
For `Cn1c(=O)n(C2CCC(=O)NC2=O)c2ccc(C3CCN(CC(=O)Nc4cccc(CS(=O)(=O)N5CC[C@H](Nc6cccc(-c7sc(C(=O)O)c(OCC(=O)O)c7Cl)c6)CC5(C)C)c4)CC3)cc21` (stereo partly shown), “BLI binding response” read 0.25 a.u. (PTPN1 (Homo sapiens, UniProt P18031); degrader, bio-layer interferometry; 500 nM, biotinylated protein immobilised; higher = more binding).
With `O=C1c2sc(-c3ccc(N4CCC(F)C4)nc3F)nc2CCN1c1cccnc1` (stereo not shown) the specific binding was 2.22 nM and 1.99 nM (TAR DNA-binding protein 43, aggregated (TARDBP, Homo sapiens, UniProt Q13148); radioligand binding; human, FTLD-TDP type B sarkosyl-insoluble extract; 72.89 nM).
For `Nc1nc2[nH]nc(CC(=O)O)c(=O)c2c(=O)[nH]1`, “target engagement efficiency” read 25.4% (folP; CETSA HiBiT; Escherichia coli, whole cells; concentration not given; baseline: whole cell over lysate ΔTm).
`C[C@@H](Nc1nc(N[C@H](C)C(F)(F)F)nc(-c2cccc(Cl)n2)n1)C(F)(F)F` gave a maximum inhibition of 88.6 ± 3.4% (IDH2 (Homo sapiens, UniProt P48735, R172K); 1 h preincubation).
`Cn1nc(CNc2nnn[nH]2)c(=O)c2c(=O)[nH]c(N)nc21` — result for “melting temperature shift”: 2.84 °C (folP; CETSA HiBiT; Escherichia coli, whole cells; concentration not given; baseline: DMSO).
`O=C(CCl)N[C@@H](Cc1ccccc1)C(=O)N1CCCC[C@H]1C(=O)NCCc1c[nH]c2cc(Cl)cc(Cl)c12` — result for “second transition share”: 30% (PIN1 (Homo sapiens, UniProt Q13526); protein denaturation, thermal shift).
`Fc1ccc(Nc2nc(NC3CCCCC3)c3cc(Br)ccc3n2)cc1F` gave a maximal inhibition of 0.8% (ADRB2 (Homo sapiens, UniProt P07550, I159A); β-arrestin2 recruitment, antagonist, BRET; mutant I159A; baseline: isoprenaline maximal response).
For `NC(=O)c1ncn(C2OC(COP(=O)(O)O)C(O)C2O)c1N` (stereo not shown), the Hill coefficient was 1.56 ± 0.1 (Fructose-1,6-bisphosphatase 1 (Mus musculus, UniProt Q9QXD6); untagged wild type).

For quick reference, copied from above:
For `Nc1nc2[nH]nc(CC(=O)O)c(=O)c2c(=O)[nH]1`, “target engagement efficiency” read 25.4% (folP; CETSA HiBiT; Escherichia coli, whole cells; concentration not given; baseline: whole cell over lysate ΔTm).
`C[C@@H](Nc1nc(N[C@H](C)C(F)(F)F)nc(-c2cccc(Cl)n2)n1)C(F)(F)F` gave a maximum inhibition of 88.6 ± 3.4% (IDH2 (Homo sapiens, UniProt P48735, R172K); 1 h preincubation).
`Cn1nc(CNc2nnn[nH]2)c(=O)c2c(=O)[nH]c(N)nc21` — result for “melting temperature shift”: 2.84 °C (folP; CETSA HiBiT; Escherichia coli, whole cells; concentration not given; baseline: DMSO).
